Published values gathered from unrelated publications.
Protocols differ between the studies behind these lines. ± gives the spread as reported.
Nuclear receptor subfamily 2 group C member 2 ligand-binding domain: Nuclear receptor subfamily 2 group C member 2, ligand-binding domain (Homo sapiens, UniProt P49116)
YWHAG/RELA phospho-Ser45 p65 peptide: YWHAG/RELA, phospho-Ser45 p65 peptide (Homo sapiens, UniProt P61981+Q04206)

CCOc1ccc2ccccc2c1C(=O)N[C@@H]1C(=O)N2[C@@H]1SC(C)(C)[C@@H]2C(=O)O has a Kd of 0.303 nM (Nuclear receptor subfamily 2 group C member 2 ligand-binding domain; SPR imaging).
With CC(=O)Nc1ccc(C=O)cc1 the EC50 was greater than 1000 µM (YWHAG/RELA phospho-Ser45 p65 peptide; ternary complex formation, stabilizer, fluorescence anisotropy).
The apoptosis of C=C(c1ccc(C(=O)O)cc1)c1cc2c(cc1C)C(C)(C)CCC2(C)C is reported as 3.51 ± 1.72 (COS-7; 100 µM, 24 h, 0.1% DMSO, unit not given; baseline: control).
With O=C(CCCCCCC(=O)NO)NO the viability was 191% (OCI-Ly1; 0.1 µM, 120 h).
With CC(=O)N[C@@H](CC(C)C)C(=O)N[C@@H](CC(C)C)C(=O)N[C@@H](CC(C)C)C(=O)N[C@@H](CCCNC(=N)N)C(=O)N[C@H](C(=O)N[C@@H](CCCCN)C(=O)N[C@@H](CCCNC(=N)N)C(N)=O)C(C)C the Ki was 0.12 ± 0.04 µM (proprotein convertase 1/3 (human); inhibitor).
Cc1ncsc1-c1ccc([C@H](CC(=O)N2CCN(c3ccc(C#Cc4ccc(C(=O)N5CCC(n6cc(-c7ccc8c(c7)CCN8C(=O)Cc7cccc(OC(F)(F)F)c7)c7c(N)ncnc76)CC5)cc4)cn3)CC2)NC(=O)[C@@H]2C[C@@H](O)CN2C(=O)[C@@H](NC(=O)C2(F)CC2)C(C)(C)C)cc1 has a DC50 of 0.0028 µM (RIPK1 (Homo sapiens, UniProt Q13546); degrader, Western blot; MOLM-14).
CCN(CC)C(=O)C1(c2ccccc2)CC1CN (centres unmarked) gave a Kd of 1.33 nM (Nuclear receptor subfamily 2 group C member 2 ligand-binding domain; SPR imaging).
O=C(O)[C@@H]1C[C@H](CP(=O)(O)O)CCN1 has a Ki of 0.16 µM (NMDA receptor (rat); radioligand binding, antagonist).
The EC50 of O=Cc1ccc([N+](=O)[O-])c(OC(=O)c2cccc(F)c2F)c1 is reported as greater than 1000 µM (YWHAG/RELA phospho-Ser45 p65 peptide; ternary complex formation, stabilizer, fluorescence anisotropy).
For Nc1ncnc2c1ncn2[C@@H]1O[C@H](C[C@@H](N)CC[C@H](N)C(=O)O)[C@@H](O)[C@H]1O, the Ki was 16.7 ± 4.3 µM (PNMT (Homo sapiens, UniProt P11086); enzyme activity, inhibitor, coupled-enzyme).
With Nc1ccn([C@@H]2CS[C@H](CO)O2)c(=O)n1 the Kd was 15.9 nM (Nuclear receptor subfamily 2 group C member 2 ligand-binding domain; SPR imaging).
CC(C)N1CCN(c2cc(C=O)ccc2[N+](=O)[O-])CC1 has an EC50 of greater than 1000 µM (YWHAG/RELA phospho-Ser45 p65 peptide; ternary complex formation, stabilizer, fluorescence anisotropy).
With O=C(COP(=O)(O)O)[C@@H](O)[C@H](O)[C@H](O)COP(=O)(O)O the AC50 was 0.0381 ± 0.0031 µM (Pyruvate kinase PKM (PKM, Homo sapiens, UniProt P14618); enzyme activity, activator; HeLa cell lysate; added: 0.2 mM PEP, 2 mM ADP).
For N#CC1CCN(c2cc(C=O)ccc2[N+](=O)[O-])CC1, the EC50 was greater than 1000 µM (YWHAG/RELA phospho-Ser45 p65 peptide; ternary complex formation, stabilizer, fluorescence anisotropy).
For CCCN1CCN(c2ccc(-c3cncc(Cl)c3N3CCC4(CCNC4=O)CC3)cc2)CC1, the Kd was greater than 11400 nM (CAMK2G (Homo sapiens, UniProt Q13555); SILAC displacement; LS174T-L5 cell lysate).
OC[C@H]1OC(O)[C@H](O)[C@@H](O)[C@@H]1O (some centres unmarked) has a Ki of 2900 ± 100 µM (Hexokinase-3 (HK3, Homo sapiens, UniProt P52790, E254A/R267A); substrate inhibition; mutant E254A/R267A, partial substrate inhibition model, added: ATP 20 mM).
The Kd of C#C[C@]1(O)CC[C@H]2[C@@H]3CCc4cc(O)ccc4[C@H]3CC[C@@]21C is reported as 0.0153 nM (Nuclear receptor subfamily 2 group C member 2 ligand-binding domain; SPR imaging).
The EC50 of CCCCC[C@H](O)/C=C/[C@H]1[C@H](O)CC(=O)[C@@H]1C/C=C\CCCC(=O)O is reported as 0.0014 µM (PTGER1 (Homo sapiens, UniProt P34995, R66A); IP1 accumulation, agonist; AD293; EP1 R66A mutant).
With CCCCN1CCCCC1C(=O)Nc1c(C)cccc1C (centres unmarked) the Kd was 0.0734 nM (Nuclear receptor subfamily 2 group C member 2 ligand-binding domain; SPR imaging).
For CS(=O)(=O)c1ccc(C=O)cc1, the EC50 was greater than 1000 µM (YWHAG/RELA phospho-Ser45 p65 peptide; ternary complex formation, stabilizer, fluorescence anisotropy).
With COc1cc2c(cc1-c1c(C)noc1C)ncc1[nH]c(=O)n([C@H](C)c3ccccn3)c12 the viability was 25.4% (OCI-Ly1; 1 µM, 120 h).
CC(=O)N1CCN(S(=O)(=O)c2ccc(C=O)cc2)CC1 gave an EC50 of greater than 1000 µM (YWHAG/RELA phospho-Ser45 p65 peptide; ternary complex formation, stabilizer, fluorescence anisotropy).
With Cc1cc(Oc2ncccc2CN2CCN(c3ccccc3Cl)CC2)ccc1-c1c(C)c(=O)[nH]c(=O)n1C the Ki was 0.0795 µM (ADRA2A (Homo sapiens, UniProt P08913); inhibitor, radioligand binding; added: [3H]rauwolscine).
With O=c1n(CCCN2CCN(c3cccc(Cl)c3)CC2)nc2ccccn12 the Ki was greater than 10 µM (TACR2 (Homo sapiens, UniProt P21452)).
CC[C@@H]1[C@H](F)C(=O)N[C@@H]1COc1nccc2cc(C(N)=O)c(OC)cc12 gave an IC50 of greater than 5 µM (PRKAA1 (Homo sapiens, UniProt Q13131); ATP-site binding, ActivX kinase profiling; THP-1 cell lysate; AMPKa1 ATP-loop probe peptide).
NC(=O)c1cccnc1 gave a Kd of 0.0546 nM (Nuclear receptor subfamily 2 group C member 2 ligand-binding domain; SPR imaging).
CN1CC2c3ccccc3Oc3ccc(Cl)cc3C2C1 (centres unmarked) has an EC50 of 0.0516 µM (HTR1A (Homo sapiens, UniProt P08908, K405A); agonist).
For Nc1nc2c(ncn2[C@@H]2O[C@H](COP(=O)(O)O)[C@@H](O)[C@H]2O)c(=O)[nH]1, the Kd was 37000 ± 2000 nM (GUK1 (Homo sapiens, UniProt Q16774, S13A); binding, ITC; 25 °C).
C[C@H](CCC(=O)O)[C@H]1CC[C@H]2[C@@H]3CC[C@@H]4C[C@H](O)CC[C@]4(C)[C@H]3CC[C@]12C gave a Kd of 20.7 nM (Nuclear receptor subfamily 2 group C member 2 ligand-binding domain; SPR imaging).
For Cc1cc(C(=O)Oc2cc(C=O)ccc2[N+](=O)[O-])c(C)o1, the EC50 was greater than 1000 µM (YWHAG/RELA phospho-Ser45 p65 peptide; ternary complex formation, stabilizer, fluorescence anisotropy).
COc1cc(/C=C/C(=O)N2CCN(CC(=O)N3CCCC3)CC2)cc(OC)c1OC has a Kd of 0.157 nM (Nuclear receptor subfamily 2 group C member 2 ligand-binding domain; SPR imaging).
With O=Cc1ccc([N+](=O)[O-])c(N2CCC(O)CC2)c1 the EC50 was greater than 1000 µM (YWHAG/RELA phospho-Ser45 p65 peptide; ternary complex formation, stabilizer, fluorescence anisotropy).
